Experimental data collected from several papers.
Every numbered part comes from another study and shows a few of its results, in no order. Values joined by “and” are separate records of one study, mostly repeats; a detail may differ.
UniProt Q96PN8, sequence (whole entry, looked up): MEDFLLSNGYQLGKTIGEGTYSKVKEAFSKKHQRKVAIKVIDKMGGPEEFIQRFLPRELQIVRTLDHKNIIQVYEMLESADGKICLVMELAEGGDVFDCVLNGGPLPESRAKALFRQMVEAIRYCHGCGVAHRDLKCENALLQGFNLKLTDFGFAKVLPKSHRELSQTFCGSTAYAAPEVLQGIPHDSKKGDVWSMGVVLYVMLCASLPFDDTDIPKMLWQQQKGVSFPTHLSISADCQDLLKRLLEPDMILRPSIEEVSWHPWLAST
UniProt Q16539, sequence (whole entry, looked up): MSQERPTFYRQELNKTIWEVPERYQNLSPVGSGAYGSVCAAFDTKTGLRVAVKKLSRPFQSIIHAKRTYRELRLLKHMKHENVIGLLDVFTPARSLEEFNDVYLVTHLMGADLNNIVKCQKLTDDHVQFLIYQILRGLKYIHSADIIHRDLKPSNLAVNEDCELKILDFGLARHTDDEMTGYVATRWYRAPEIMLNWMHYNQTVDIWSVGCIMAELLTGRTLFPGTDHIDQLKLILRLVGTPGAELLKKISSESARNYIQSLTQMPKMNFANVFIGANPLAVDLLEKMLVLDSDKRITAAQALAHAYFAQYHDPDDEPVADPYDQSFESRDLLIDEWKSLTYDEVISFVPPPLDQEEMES

Series 1 — concentration: 1 µM
SMILES: COc1ccc2[nH]c3c4[nH]c5ccc(OC)cc5c4c4c(c3c2c1)C(=O)NC4=O
target	method	measured	notes	relative to	remaining binding
TSSK3 (Homo sapiens, UniProt Q96PN8)	competitive binding panel	–	–	vehicle	89%
TTK (Homo sapiens, UniProt P33981)	competitive binding panel	–	–	vehicle	50%
EIF2AK1 (Homo sapiens, UniProt Q9BQI3)	competitive binding panel	–	–	vehicle	86%
ACVRL1 (Homo sapiens, UniProt P37023)	competitive binding panel	–	–	vehicle	100%
LIM domain kinase 1 (LIMK1, Homo sapiens, UniProt P53667)	competitive binding panel	–	–	vehicle	91%
LRRK2 (Homo sapiens, UniProt Q5S007)	competitive binding panel	–	–	vehicle	2.8%
ABL1 (Homo sapiens, UniProt P00519)	competitive binding, scanMAX	–	phosphorylated, 1000 nM	–	57%
HIPK3 (Homo sapiens, UniProt Q9H422)	competitive binding panel	–	–	vehicle	44%
MAP3K9 (Homo sapiens, UniProt P80192)	competitive binding panel	MLK1	–	vehicle	2.2%
MAP2K2 (Homo sapiens, UniProt P36507)	competitive binding panel	MEK2	–	vehicle	59%
MST1R (Homo sapiens, UniProt Q04912)	competitive binding panel	–	–	vehicle	93%
NEK7 (Homo sapiens, UniProt Q8TDX7)	competitive binding panel	–	–	vehicle	92%
STK35 (Homo sapiens, UniProt Q8TDR2)	competitive binding panel	–	–	vehicle	80%

Series 2 — read-out: enzyme activity; mode: inhibitor; concentration: 0.5 µM; relative to: control
Target: Phosphorylase b kinase gamma catalytic chain, liver/testis isoform (PHKG2, Homo sapiens, UniProt P15735)
UniProt P15735, sequence (whole entry, looked up): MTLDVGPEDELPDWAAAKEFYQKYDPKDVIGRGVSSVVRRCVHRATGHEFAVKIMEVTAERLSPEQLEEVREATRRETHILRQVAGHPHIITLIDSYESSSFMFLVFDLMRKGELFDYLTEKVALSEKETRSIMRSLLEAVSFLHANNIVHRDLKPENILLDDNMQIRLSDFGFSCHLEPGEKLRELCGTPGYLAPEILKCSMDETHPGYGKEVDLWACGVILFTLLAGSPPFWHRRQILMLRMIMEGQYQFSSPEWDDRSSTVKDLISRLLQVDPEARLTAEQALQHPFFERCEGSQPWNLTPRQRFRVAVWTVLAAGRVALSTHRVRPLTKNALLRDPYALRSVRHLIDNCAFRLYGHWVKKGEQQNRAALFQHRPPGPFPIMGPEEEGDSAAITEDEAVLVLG
Structure (SMILES)	remaining activity [%]
O=C1c2ccccc2-c2n[nH]c3cccc1c23	76.5
Ic1cccc(CSc2nnc(-c3ccncc3)o2)c1	105
Cc1nc2cc3nc(-c4cccs4)cnc3cc2n1C	102
c1ccc(-c2cnc(Nc3ccc(OCCN4CCCC4)cc3)s2)cc1	97
CCN(CC)CCNC(=O)c1c(C)[nH]c(/C=C2\C(=O)Nc3ccc(Cl)cc32)c1C	16.6
O=C(Nc1cccc(Nc2nccc(Nc3cccc(C(F)(F)F)c3)n2)c1)C1CC1	107
COc1cc2ncnc(Nc3ccc(O)c(Br)c3)c2cc1OC	98
CN(C)C[C@H]1CCn2c(c(C3=C(c4cn(C)c5ccccc45)C(=O)NC3=O)c3ccccc32)C1	104
Cn1nc2c3c(cccc31)C(=O)c1ccccc1-2	95.4
N#C/C(=C\c1ccc(O)c(O)c1)C(=O)NCc1ccccc1	96
C[C@@H]1CCN(C(=O)CC#N)C[C@@H]1N(C)c1ncnc2[nH]ccc12	98.6
O=C(NC(NC(=S)Nc1ccc(F)c([N+](=O)[O-])c1)C(Cl)(Cl)Cl)C(c1ccccc1)c1ccccc1 (stereo not drawn)	109
CCN(CC)C(=O)c1ccc(Nc2nc(OCC3CCCCC3)c3[nH]cnc3n2)cc1	96.6

Series 3 — read-out: enzyme activity; mode: inhibitor; concentration: 77 µM; relative to: untreated
Target: DNA polymerase theta, ATPase domain (POLQ, Homo sapiens, UniProt O75417)
UniProt O75417, sequence (whole entry, unmodified, looked up): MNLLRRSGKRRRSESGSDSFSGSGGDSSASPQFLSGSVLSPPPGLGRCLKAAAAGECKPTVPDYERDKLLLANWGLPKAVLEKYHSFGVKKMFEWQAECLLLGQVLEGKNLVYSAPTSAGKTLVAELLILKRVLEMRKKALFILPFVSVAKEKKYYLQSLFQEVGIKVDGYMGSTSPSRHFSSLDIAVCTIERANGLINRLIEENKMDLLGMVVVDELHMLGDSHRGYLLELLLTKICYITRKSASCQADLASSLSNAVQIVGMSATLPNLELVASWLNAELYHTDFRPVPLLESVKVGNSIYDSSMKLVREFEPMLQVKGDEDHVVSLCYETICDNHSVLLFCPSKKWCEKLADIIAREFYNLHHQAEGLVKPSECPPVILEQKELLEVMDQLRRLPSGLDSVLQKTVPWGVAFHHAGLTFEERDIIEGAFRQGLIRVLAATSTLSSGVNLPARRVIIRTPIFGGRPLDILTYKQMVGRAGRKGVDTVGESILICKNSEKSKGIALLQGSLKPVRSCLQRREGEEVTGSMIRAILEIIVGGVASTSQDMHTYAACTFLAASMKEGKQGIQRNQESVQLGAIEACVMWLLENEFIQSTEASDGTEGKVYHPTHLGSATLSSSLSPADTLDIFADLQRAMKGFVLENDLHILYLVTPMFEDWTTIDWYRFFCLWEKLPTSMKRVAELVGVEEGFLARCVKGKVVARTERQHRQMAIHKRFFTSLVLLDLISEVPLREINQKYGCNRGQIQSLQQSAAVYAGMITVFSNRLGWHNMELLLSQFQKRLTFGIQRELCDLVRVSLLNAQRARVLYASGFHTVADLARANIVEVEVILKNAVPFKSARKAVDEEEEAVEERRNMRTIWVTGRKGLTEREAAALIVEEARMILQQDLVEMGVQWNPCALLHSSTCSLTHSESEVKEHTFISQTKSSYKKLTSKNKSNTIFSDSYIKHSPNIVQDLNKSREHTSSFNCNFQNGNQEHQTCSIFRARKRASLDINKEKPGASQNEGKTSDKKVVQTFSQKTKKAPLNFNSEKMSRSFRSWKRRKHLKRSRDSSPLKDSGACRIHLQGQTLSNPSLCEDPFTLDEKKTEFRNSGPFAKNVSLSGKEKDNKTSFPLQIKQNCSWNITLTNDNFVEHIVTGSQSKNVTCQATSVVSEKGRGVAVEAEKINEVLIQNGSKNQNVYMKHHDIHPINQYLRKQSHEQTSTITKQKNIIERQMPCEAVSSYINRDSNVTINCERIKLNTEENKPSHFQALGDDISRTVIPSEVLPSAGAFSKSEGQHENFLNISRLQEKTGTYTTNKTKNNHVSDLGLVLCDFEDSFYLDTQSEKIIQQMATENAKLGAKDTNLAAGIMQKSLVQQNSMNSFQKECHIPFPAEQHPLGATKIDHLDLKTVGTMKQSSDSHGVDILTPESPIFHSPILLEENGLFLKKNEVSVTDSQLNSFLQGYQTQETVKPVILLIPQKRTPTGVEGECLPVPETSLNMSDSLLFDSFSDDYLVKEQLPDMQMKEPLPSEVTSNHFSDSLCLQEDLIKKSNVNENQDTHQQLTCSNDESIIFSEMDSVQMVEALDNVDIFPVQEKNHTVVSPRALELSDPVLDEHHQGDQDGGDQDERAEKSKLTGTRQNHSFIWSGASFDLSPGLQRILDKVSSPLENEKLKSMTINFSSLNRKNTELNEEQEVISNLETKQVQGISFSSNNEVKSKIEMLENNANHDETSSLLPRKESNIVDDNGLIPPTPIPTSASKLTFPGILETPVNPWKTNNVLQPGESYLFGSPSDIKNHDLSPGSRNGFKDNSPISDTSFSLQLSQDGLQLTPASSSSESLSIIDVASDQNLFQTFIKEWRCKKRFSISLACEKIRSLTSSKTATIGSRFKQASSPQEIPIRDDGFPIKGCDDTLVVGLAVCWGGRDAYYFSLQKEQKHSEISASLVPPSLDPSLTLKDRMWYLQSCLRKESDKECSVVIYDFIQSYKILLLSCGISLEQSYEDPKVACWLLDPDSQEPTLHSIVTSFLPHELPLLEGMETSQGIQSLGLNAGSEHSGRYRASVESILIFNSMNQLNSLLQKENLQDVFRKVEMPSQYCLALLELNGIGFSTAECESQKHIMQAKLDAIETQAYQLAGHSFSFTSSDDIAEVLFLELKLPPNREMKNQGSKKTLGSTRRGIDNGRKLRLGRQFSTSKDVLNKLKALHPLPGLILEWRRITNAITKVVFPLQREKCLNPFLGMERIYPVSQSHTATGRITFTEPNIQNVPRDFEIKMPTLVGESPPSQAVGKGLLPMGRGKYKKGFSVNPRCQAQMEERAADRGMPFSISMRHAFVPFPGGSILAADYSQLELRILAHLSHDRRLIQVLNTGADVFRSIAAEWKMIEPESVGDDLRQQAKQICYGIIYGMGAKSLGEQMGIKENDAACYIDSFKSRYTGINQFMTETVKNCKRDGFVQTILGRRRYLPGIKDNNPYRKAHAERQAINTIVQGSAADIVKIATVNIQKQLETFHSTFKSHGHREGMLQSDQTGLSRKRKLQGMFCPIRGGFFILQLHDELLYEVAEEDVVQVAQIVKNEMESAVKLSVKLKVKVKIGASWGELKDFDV
SMILES	remaining activity
CN(C(=O)CCCOc1ccc2[nH]c(=O)ccc2c1)C1CCCCC1	104%
CN(C)C(=O)Oc1cccc([N+](C)(C)C)c1	100% and 107%
CCCCOc1ccc(C(=O)Nc2ccc(F)cc2F)cc1	96.4%
C[C@]12CC[C@@H]3c4ccc(OC(=O)c5ccccc5)cc4CC[C@H]3[C@@H]1CC[C@@H]2O	104%
C[C@]12CC[C@H](O)CC1=CC[C@@H]1[C@@H]2CC[C@]2(C)C(n3cnc4ccccc43)=CC[C@@H]12	97.7%
COc1cc2c(Oc3ccc(NC(=O)C4(C(=O)Nc5ccc(F)cc5)CC4)cc3F)ccnc2cc1OCCCN1CCOCC1	96.6%
Nc1ccc(-c2nc3ccc(-c4nc5ccc(N)cc5[nH]4)cc3[nH]2)cc1	129%
Cc1c(C(=O)Nc2ccc(N3C[C@@H](C)O[C@@H](C)C3)nc2)cccc1-c1ccc(OC(F)(F)F)cc1	98.4%
C[C@H](NCc1ccc(OCc2cccc(F)c2)cc1)C(N)=O	97.6%
OC[C@H]1OC(O)[C@H](O)[C@@H](O)[C@@H]1O (stereo partly drawn)	95.9%
Nc1ncnc2c1C(=O)N(c1ccc([C@H]3CC[C@H](CC(=O)O)CC3)cc1)CCO2	92.5%
O=C(O)c1ccccc1C(=O)Nc1ccc(S(=O)(=O)Nc2nccs2)cc1	96.9%
CC1(C)[C@@H](O[C@H]2O[C@H](C(=O)O)[C@@H](O)[C@H](O)[C@H]2O[C@@H]2O[C@H](C(=O)O)[C@@H](O)[C@H](O)[C@H]2O)CC[C@]2(C)[C@H]3C(=O)C=C4[C@@H]5C[C@@](C)(C(=O)O)CC[C@]5(C)CC[C@@]4(C)[C@]3(C)CC[C@@H]12	96.2%
CC(C)(C)c1cc(C(C)(C)C)c(NC(=O)c2c[nH]c3ccccc3c2=O)cc1O	101%
Cc1ccc2c(=O)c3cccc(CC(=O)O)c3oc2c1C	92.8%

Series 4 — Structure (SMILES): FC(F)(F)c1ccc2c(c1)nc(-c1cccnc1)n2C1CC1; read-out: cell-free assay; method: competition with immobilised ligand; concentration: 1 µM
target	remaining binding [%]
Tyrosine-protein kinase JAK1, JH1 (JAK1, Homo sapiens, UniProt P23458)	100
MAP3K10 (Homo sapiens, UniProt Q02779)	100
EGFR (Homo sapiens, UniProt P00533)	86
RPS6KB1 (Homo sapiens, UniProt P23443)	100
MAPK14 (Homo sapiens, UniProt Q16539)	99
ROS1 (Homo sapiens, UniProt P08922)	100
Tyrosine-protein kinase ABL1, non-phosphorylated (ABL1, Homo sapiens, UniProt P00519, Q252H)	81
EPHB4 (Homo sapiens, UniProt P54760)	100
TSSK3 (Homo sapiens, UniProt Q96PN8)	65
PRKAA2 (Homo sapiens, UniProt P54646)	100
CAMKK1 (Homo sapiens, UniProt Q8N5S9)	100
PHKG2 (Homo sapiens, UniProt P15735)	100
IRAK1 (Homo sapiens, UniProt P51617)	100
Tyrosine-protein kinase JAK2, JH1 (JAK2, Homo sapiens, UniProt O60674)	100
STK33 (Homo sapiens, UniProt Q9BYT3)	100
MAP3K2 (Homo sapiens, UniProt Q9Y2U5)	100
PIK3CA (Homo sapiens, UniProt P42336)	100
FYN (Homo sapiens, UniProt P06241)	100
RIOK2 (Homo sapiens, UniProt Q9BVS4)	100

Some of these lines once more (series 4):
target	remaining binding [%]
CAMKK1 (Homo sapiens, UniProt Q8N5S9)	100
PHKG2 (Homo sapiens, UniProt P15735)	100
RPS6KB1 (Homo sapiens, UniProt P23443)	100
MAP3K2 (Homo sapiens, UniProt Q9Y2U5)	100
